# Measured values from different studies.
# Parts stem from different laboratories: compare values within a part only.

# Set 1
# Target: Interferon regulatory factor 7, full length, phosphomimetic (IRF7, Homo sapiens, UniProt Q92985, residues 1-503, S101K/S471D/S472D/S475D/S476D/S477D/S483D/S484D/S487D)
# UniProt Q92985, sequence (whole entry, unmodified, looked up): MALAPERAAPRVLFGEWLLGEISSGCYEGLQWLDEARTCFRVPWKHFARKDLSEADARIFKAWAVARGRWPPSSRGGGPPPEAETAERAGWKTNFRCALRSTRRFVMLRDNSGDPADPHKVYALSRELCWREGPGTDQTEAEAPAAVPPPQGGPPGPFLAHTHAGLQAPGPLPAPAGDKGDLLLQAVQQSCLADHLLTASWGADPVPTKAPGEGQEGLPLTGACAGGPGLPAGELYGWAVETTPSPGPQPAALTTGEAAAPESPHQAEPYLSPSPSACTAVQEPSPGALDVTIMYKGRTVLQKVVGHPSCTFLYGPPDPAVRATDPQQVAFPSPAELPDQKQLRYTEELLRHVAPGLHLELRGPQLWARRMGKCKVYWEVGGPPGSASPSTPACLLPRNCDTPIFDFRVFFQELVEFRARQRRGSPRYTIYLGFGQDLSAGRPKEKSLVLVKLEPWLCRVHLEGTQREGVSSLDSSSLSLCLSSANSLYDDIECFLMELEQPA
# Technique: protein-binding microarray
# Molecule type: double-stranded DNA, one strand shown
# Medium: in vitro
# Tested at: 250 nM
# Notes: 60-bp whole probe
# Added: salmon DNA 0.4 mg/ml
# Reference: random background probes
# Reading: higher = stronger binding
# Constant ends, left off below: GCCTAGCAC … GTCTTGATTCGCTTGACGCTGCTG
Oligonucleotide,log fluorescence [z-score]
TTAGAACTGGGATATCGATTAGTGCTA,-0.0895
TTATGTTTCCTTATCCTTTAGTGCTAG,2.21
GACAATATCAGTTTCGAGACGTGCTAG,4.49
TATAGTTATTTTTATTAAAAGTGCTAG,0.45
TTCGATTCCAGTTTCGATTAGTGCTAG,9.01
TCACAAAAATGATTGGTACTGTGCTAG,-0.000547
TTAGGTTTCCTTATCTTTTAGTGCTAG,2.18
GTAGATTTCGGGACTGGATTAGTGCTA,-0.214
GACGATATCAGTCTCGGGACGTGCTAG,0.157
TTAGGTTTCGCGTTTCGGTTAGTGCTA,9.08
GACGAACAGGGGTATCGAGACGTGCTA,-0.593
TTAGGTATCTGGTTTCGGTTAGTGCTA,8.4
TTAGATATCGGAACTGGATTAGTGCTA,0.21
TTAGATTTCGGGACAGGATTAGTGCTA,0.409
ATATATGTGTATATATAATAGTGCTAG,0.453
GACGGACTGGACTTTCGTGACGTGCTA,-0.385
TCAATTTTCGTTTTGTGACTGTGCTAG,11.4
GACGGTTTCGGTATTGGGACGTGCTAG,10.3
TTAGATATCGGGTATCGATAAGTGCTA,0.328
TTAGGTATCGGTCCCGGTTAGTGCTAG,0.927

# Set 2
# Target: Sal-like protein 4, full length isoform A (SALL4, Homo sapiens, UniProt Q9UJQ4, residues 1-1053)
# UniProt Q9UJQ4, sequence (whole entry, looked up): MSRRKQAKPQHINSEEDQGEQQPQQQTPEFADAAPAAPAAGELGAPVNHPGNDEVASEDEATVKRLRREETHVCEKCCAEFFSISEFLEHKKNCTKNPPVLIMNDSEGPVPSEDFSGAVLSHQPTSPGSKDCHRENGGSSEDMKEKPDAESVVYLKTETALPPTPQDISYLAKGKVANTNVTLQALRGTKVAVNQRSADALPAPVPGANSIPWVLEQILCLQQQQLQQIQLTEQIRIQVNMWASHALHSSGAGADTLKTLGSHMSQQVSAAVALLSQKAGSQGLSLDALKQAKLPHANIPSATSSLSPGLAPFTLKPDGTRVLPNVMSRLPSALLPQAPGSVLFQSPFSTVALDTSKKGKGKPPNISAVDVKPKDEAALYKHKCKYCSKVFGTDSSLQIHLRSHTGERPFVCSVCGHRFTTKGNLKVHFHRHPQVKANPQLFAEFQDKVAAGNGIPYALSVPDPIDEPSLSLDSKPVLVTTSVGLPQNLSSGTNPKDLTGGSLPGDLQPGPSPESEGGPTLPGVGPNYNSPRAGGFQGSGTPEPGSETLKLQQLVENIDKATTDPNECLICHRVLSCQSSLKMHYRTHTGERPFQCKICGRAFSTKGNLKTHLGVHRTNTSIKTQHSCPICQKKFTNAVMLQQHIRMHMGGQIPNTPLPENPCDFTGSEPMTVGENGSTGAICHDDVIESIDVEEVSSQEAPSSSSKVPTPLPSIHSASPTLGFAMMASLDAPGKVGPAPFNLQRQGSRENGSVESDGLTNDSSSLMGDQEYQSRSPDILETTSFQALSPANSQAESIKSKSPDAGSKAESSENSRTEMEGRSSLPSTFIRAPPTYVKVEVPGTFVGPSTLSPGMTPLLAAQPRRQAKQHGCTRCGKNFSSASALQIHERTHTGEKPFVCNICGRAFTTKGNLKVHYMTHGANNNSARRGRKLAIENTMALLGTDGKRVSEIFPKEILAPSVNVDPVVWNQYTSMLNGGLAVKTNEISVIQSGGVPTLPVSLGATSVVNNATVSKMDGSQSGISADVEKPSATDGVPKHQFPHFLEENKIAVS
# Technique: universal PBM
# Molecule type: double-stranded DNA, one strand shown
# Medium: in vitro
# Tested at: 600 nM
# Notes: 8-mer, flanks averaged, mean of replicates
# Reading: higher = stronger binding
Oligonucleotide,E-score
CGCAGGAC,-0.283
CCTGCTGC,-0.201
GGTTCTCA,-0.0784
AATCGAAA,0.198
AGCGAGGG,-0.0958
ATCCCCGA,-0.0812
GCTGTACA,-0.0991
CCATCACA,-0.051
CCGATGCA,-0.214
ACCCACGG,-0.336
CAGGCGCG,-0.377
ACGTCGCA,-0.209
ATAGACTG,0.1
CAGCAGAG,-0.201
AAATAGAT,0.305
CTTCCTTA,0.0398
CTAGGGAG,-0.168
CCGGAGGA,-0.306
AGAACTCA,0.0727
AACCGGTC,-0.0778
AGGTAATG,0.0344
CCTGCTTC,-0.164
ATGACCAA,0.186
CCTGCCCA,-0.238
CGCGTGGC,-0.234

# Set 3
# Target: Ras GTPase-activating protein-binding protein 1, full length (G3BP1, Homo sapiens, UniProt Q13283)
# UniProt Q13283, sequence (whole entry, looked up): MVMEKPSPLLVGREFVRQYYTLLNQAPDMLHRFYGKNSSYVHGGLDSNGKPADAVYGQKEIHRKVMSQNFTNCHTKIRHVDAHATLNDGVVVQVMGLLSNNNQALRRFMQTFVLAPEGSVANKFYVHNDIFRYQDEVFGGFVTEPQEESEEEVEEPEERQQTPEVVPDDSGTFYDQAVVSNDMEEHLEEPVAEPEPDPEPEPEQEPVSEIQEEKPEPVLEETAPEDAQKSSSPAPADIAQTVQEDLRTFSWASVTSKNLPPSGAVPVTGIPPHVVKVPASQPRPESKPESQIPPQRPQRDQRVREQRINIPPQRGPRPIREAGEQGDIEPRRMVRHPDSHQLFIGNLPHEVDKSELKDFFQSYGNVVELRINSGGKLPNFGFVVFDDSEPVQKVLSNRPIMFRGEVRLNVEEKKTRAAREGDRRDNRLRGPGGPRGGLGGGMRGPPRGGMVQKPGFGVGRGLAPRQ
# Technique: RNA Bind-n-Seq
# Molecule type: RNA
# Medium: in vitro
# Tested at: 200 nM
# Notes: whole 134-nt RNA, ends assumed
# Added: 150 mM KCl
# Reference: input library
# Reading: higher = stronger binding
# Constant ends, left off below: GGGAGUUCUACAGUCCGACGAUC … UGGAAUUCUCGGGUGUCAAGG
Oligonucleotide,log2 enrichment
CCUCAAGUCCUGUGCUACACAUCGUAUGUACCGAAUCGGUGGGGUGGGGUGGGAAAGUAUUAUGUUACGCCGUUCGGAUCUGCACUUCCA,1.22
CCUCAAGUCCUGUGCUACACAUCGUAUGUACCGAAUCGGGCGGGCGGGCGGGGAAAGUAUUAUGUUACGCCGUUCGGAUCUGCACUUCCA,1.13
AGUCCUGUGCUACACAUCGUAUGUACCGAAUCGGGAAAGGGAAAGGGAAAAAAAGGGAAAGUAUUAUGUUACGCCGUUCGGAUCUGCACU,-0.243
ACCAUACAGGUGGGCAUCUUUGGGAAGUGGGGCAAGGGGGGGAUAGGGAGGGGGGUAACACUUUGGGAACAGGUGGUCCCAGGUCGUUUC,1.12
UUGGCGCAUGCGCCUAAAGCUGACGGGUUUGAAAUGGCUUCGAUGUUAGCCGGGACCCGACUCAGGUGAAGGUCUGGUCCCCGUAGUUGG,-1.15
CACAGACCACACGCACCCACACAGACACAGAGGGAAGGGGUUGGGAUGGGGACAGGGUGCACAGCAGGGCGGGGUAGGACCCCAGCCCCU,1.78
UGUAACCUGGGGAUUCUCUCAACUCUCUUGUCCCACACAGACUUCUAUGAGGAAAUCCAGGAGUUUGUGAAAGAUGUCUUUUCACCUAUA,0.0427
UGGCCCUGGUGGCAUGCGGGGAGGAAGAGGUGGCCUCAUGGAUCGUGGUGAUCCCGGUGGAAUGUUCAGAGGUGGCCGUGGUGGAGACAG,0.0563
UUGAACAUCUGCAGGAAAAGAGGCGAGAGGGCACUUUGAGAGUGGAUACCUACACUCUAGUGCAGCCUGAGGCAGAAGACCAUGUUGAGA,-1.04
GCAGGAAGUAAAAACAAAUGGAAAUGCUUCGGAUAGUGGCAGGGGUGGGGGUUGCUAAGGAAAGGGUGGUAUGGGAGUGGGUAAAGAGUU,0.79
AAUGCCCACAAGGUCCCUCCCCCAUGGCUGAUUGCCAUGCAGCGAUAUGGACCACCCCCAUCGUAUCCCAACCUGAAAAUCCCUGGGCUG,0.782
UGGGAGGUGGAUUGUGUUUAUUUUUUUAGCUCAUUUCCAGGGGUGGGAAUUUUUUUUUAAUAUGUGUCAUGAAUAAAGUUGUUUUUGAAA,-0.062
CUCAAGUCCUGUGCUACACAUCGUAUGUACCGAAUCGGUUUGGAAAAAGGUGGAAAGUAUUAUGUUACGCCGUUCGGAUCUGCACUUCCA,-0.269
UUCAGGAUUGUGAGGGUGAAACUCCCAUUCACAAGGCAGCUCGCUCUGGGAGCCUAGAAUGCAUCAGUGCCCUUGUGGCGAAUGGGGCUC,-1.38

# Set 4
# Target: RNA binding protein fox-1 homolog 2, RRM domain, GST-SBP tag (RBFOX2, Homo sapiens, UniProt O43251-10, residues 100-194)
# Technique: RNA Bind-n-Seq
# Molecule type: RNA
# Medium: in vitro
# Tested at: 365 nM
# Notes: natural RNA segment, single round, ends assumed
# Reference: no-protein control
# Reading: higher = stronger binding
# Constant ends, left off below: GGGAGUUCUACAGUCCGACGAUC … UGGAAUUCUCGGGUGCCAA
# Residues (chain): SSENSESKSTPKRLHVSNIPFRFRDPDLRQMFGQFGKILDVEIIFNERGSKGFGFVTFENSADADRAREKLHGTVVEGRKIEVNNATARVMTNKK
Oligonucleotide,RBNS enrichment (R)
UUUAAUCUCUUCUAUUUUGUUGUCGUUGCUUGUUUGAAGAAAAUCAUGACAUUCCAAGUUGACAUUUUUUUUUCAUUUUAAUUAAAAUUUGAAAUUCUGAACACCGUCAG,1.1
ACAGCAGCUUGUUACCAACAUUUUAAACCAAAUACUAAAAAGGUUUUUAAAGUCCUAGUAGAAAAAGUCAAAUACAUCUGCAUUUAAUUUAUGUCUGCAUAUUCUUCUAG,0.455
AUAAUCUGCUGCCAUUCCUUGUCUGAAUGGCUCAGCAGGAGUAACUGUUAUCUCCUCUCCUAAGGAGAUGAAGACCUAACAGGGGCACUGCGGCUGGGCUGCUUUAGGAG,0.204
UAGAGUUUUACAUUGUUGAUGAUAGAUUAACAAUAAAGUGAUGUUCUGGUGGAGGUAGACUGAAAUUUUUUUAAUUCAUGUUUUUCAUUUGAUACUUUUAAUUUACACUU,1.29
CAUUCCAGCCAGUAAUUUAUAGCCUUUCCCCUAAAUCAAGAAUGAGUUUAAAAUUAUAGUCUGUCUUUUAUCUUAACAGUUCUGAAUGCUGUCCUCAAAGUAUAUAAUGU,0.379
UUGGACACAGGAAAUGUUGAUAGAUAUUUCGUUAAAUUGGUGAGUUUGGUAAUAUGUUAGCUCUCAUUGGACAAGAUAGACGCCAUAUAGGAGGCUGAGGGUUAGGACAC,0.6
GUCUUUAAGCAGCCGUGUCCAGGCUUCCUGAGAACACCGGCUGCAAACACGGGCAUCCCGGGGAAAGCUGGGAGUUUGGUUCCUGGCACAUUGCAAUCACUUGAUUGUGA,0.338
GUUGUUUUGGAGCCUGUUGACUUUGUAUCUCUGCCUGUGAUUUUCUUUUCUAAAUGAAACUCCAUGUAGCAACCAGGACGAAGUUGAGAAGGAAAACGCCAAAUGCUUUG,0.611
CACAAAAUGUAUUAUGGUGCCAUGGCUGUUAGUUUUUAGUGAGUGCUGUAGGAUUAAUUCGAAAAUAGGCAGAAUUCCAUUCCUCCCAAGGUGGCAAAAAUUAGCUAUAC,0.822
AUGAAUUAAUUACGUUCCUGAUAGAUCACAGUCAAUCUUCUGAAGAUGAGUUAAAAAUGCCUUGUCUGGAUUAUUGGCAAAUCUUUGUCGGCACAAUCUUUCUGUUCAAA,0.36
UAUUUUGUUUGUUUCUCAAGUGACUUGUGGACUUGUGCUGUAUAAACUGUAUUAAAAAGGCUCUGUUUUUAAAGAUCAAUUGUCAUUCCUGUGGGGACAGUGGCUACUGA,0.789
AAAUGAAAAUUAAUAAAUUCAAAAAUACUAAAAGUCACCUUCUUUGUCACGUUAGCAACCAGUUUCUACUAUUCUGUGCCCAUCCAGUGUCAAUAUCAUUGAUUUCUUUU,0.433

# Set 5
# Target: Histone acetyltransferase KAT6A, both winged helices, GST fusion (KAT6A, Homo sapiens, UniProt Q92794, residues 1-181)
# Technique: protein binding microarray
# Molecule type: double-stranded DNA, one strand shown
# Medium: in vitro
# Tested at: not given
# Notes: 8-mer, flanks averaged, mean of 2 arrays, mostly near background
# Reference: not given
# Reading: higher = stronger binding
# Target sequence (chain): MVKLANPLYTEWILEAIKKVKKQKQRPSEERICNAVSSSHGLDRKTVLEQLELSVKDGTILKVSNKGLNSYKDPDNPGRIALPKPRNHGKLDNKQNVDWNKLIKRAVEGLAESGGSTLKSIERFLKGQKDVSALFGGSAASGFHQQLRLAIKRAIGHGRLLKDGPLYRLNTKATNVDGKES
Oligonucleotide,E-score
AAGATGCC,-0.0737
AATGAAAA,0.0149
GGCCCCGA,0.113
ACTGTAAC,-0.0736
CAGTGTAC,0.00404
GGCGCGAA,0.2
AGTCCCTA,-0.0768
AGCAACGG,0.114
AAAGGAGA,-0.06
AGATTTGA,0.0659
CTCCTTGA,-0.0769
CCACGAGG,-0.0913
CTCCTAAC,-0.195
GACTACGA,-0.192
AAGCAATA,-0.142
CCATGCAC,-0.144
AACGCTTA,0.079
ATCCTGTA,-0.212

# Excerpt of the above (set 1):
Oligonucleotide,log fluorescence [z-score]
GTAGATTTCGGGACTGGATTAGTGCTA,-0.214
GACGATATCAGTCTCGGGACGTGCTAG,0.157
TTAGGTTTCGCGTTTCGGTTAGTGCTA,9.08
GACGAACAGGGGTATCGAGACGTGCTA,-0.593
TTAGGTATCTGGTTTCGGTTAGTGCTA,8.4
TTAGATATCGGAACTGGATTAGTGCTA,0.21
TTAGATTTCGGGACAGGATTAGTGCTA,0.409
ATATATGTGTATATATAATAGTGCTAG,0.453
GACGGACTGGACTTTCGTGACGTGCTA,-0.385
TCAATTTTCGTTTTGTGACTGTGCTAG,11.4
